# Assay results from different studies.
# Numbered parts are unrelated; each lists some results of a single study.
# Chain of UniProt Q6P3R8 (whole entry, looked up): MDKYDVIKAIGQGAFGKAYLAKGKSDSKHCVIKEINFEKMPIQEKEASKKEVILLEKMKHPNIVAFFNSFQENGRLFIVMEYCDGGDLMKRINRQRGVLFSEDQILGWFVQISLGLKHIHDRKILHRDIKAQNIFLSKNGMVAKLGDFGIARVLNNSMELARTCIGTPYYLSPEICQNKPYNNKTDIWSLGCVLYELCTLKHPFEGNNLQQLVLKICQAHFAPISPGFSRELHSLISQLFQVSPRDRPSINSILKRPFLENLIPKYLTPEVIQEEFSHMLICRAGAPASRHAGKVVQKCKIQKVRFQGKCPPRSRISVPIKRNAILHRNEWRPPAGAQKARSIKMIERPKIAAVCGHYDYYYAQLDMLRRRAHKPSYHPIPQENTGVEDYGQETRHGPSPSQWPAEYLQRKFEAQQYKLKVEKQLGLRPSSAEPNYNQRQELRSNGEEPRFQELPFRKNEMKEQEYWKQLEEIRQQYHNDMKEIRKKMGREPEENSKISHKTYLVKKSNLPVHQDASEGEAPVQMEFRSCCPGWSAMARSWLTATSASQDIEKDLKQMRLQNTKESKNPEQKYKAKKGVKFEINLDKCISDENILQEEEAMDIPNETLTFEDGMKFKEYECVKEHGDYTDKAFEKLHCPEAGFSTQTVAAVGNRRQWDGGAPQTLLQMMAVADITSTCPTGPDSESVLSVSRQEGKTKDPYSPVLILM
# Chain of UniProt Q04912 (whole entry, looked up): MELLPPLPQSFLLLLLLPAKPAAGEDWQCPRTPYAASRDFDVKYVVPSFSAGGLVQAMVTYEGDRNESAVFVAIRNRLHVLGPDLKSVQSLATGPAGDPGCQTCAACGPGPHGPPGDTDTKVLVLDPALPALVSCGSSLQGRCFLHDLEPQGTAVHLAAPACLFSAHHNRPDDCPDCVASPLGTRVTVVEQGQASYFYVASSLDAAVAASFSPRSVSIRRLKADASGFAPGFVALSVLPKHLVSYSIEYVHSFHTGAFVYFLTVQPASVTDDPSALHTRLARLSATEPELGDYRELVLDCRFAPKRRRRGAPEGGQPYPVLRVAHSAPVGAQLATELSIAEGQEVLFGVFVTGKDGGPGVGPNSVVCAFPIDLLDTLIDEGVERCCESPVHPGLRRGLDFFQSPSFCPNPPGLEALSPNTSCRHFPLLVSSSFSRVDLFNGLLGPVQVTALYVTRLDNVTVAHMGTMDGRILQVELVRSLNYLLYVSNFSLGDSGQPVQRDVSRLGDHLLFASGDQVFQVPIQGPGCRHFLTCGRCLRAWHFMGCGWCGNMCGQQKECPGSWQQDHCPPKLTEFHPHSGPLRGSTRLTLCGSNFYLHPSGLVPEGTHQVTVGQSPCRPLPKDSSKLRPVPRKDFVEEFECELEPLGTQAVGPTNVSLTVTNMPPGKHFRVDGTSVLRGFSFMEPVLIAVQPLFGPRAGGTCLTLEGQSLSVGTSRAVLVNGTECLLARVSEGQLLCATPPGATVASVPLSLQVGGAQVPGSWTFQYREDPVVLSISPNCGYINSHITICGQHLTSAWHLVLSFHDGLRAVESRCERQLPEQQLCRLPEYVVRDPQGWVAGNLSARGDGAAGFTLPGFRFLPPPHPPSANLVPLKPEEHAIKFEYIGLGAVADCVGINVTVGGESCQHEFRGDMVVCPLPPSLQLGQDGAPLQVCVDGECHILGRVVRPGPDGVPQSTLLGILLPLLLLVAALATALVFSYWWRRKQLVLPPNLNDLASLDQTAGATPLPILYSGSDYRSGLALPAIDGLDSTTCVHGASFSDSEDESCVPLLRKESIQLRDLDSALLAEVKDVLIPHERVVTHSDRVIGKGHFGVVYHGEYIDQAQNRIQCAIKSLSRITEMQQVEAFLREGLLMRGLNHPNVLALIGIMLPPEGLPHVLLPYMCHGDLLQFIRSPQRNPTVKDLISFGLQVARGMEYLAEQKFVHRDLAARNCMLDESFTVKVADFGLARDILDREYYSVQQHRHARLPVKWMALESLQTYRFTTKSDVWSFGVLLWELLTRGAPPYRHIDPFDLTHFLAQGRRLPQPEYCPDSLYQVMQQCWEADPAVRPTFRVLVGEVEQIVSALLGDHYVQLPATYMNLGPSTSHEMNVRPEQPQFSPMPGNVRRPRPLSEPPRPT
# Chain of UniProt P42685 (whole entry, looked up): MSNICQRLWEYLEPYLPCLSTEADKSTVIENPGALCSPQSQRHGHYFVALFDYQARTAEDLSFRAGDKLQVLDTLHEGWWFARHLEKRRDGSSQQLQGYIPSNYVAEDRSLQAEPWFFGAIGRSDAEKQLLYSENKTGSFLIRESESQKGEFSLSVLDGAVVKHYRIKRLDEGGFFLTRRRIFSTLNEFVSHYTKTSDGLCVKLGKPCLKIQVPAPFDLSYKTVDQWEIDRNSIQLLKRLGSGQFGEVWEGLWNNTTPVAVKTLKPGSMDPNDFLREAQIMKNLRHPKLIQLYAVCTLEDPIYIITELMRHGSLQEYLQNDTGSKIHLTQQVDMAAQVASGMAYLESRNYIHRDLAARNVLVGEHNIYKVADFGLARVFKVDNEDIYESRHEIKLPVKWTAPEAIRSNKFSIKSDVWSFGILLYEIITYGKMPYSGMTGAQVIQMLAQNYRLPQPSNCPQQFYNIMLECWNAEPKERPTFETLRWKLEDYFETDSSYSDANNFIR
# Chain of UniProt Q15349 (whole entry, looked up): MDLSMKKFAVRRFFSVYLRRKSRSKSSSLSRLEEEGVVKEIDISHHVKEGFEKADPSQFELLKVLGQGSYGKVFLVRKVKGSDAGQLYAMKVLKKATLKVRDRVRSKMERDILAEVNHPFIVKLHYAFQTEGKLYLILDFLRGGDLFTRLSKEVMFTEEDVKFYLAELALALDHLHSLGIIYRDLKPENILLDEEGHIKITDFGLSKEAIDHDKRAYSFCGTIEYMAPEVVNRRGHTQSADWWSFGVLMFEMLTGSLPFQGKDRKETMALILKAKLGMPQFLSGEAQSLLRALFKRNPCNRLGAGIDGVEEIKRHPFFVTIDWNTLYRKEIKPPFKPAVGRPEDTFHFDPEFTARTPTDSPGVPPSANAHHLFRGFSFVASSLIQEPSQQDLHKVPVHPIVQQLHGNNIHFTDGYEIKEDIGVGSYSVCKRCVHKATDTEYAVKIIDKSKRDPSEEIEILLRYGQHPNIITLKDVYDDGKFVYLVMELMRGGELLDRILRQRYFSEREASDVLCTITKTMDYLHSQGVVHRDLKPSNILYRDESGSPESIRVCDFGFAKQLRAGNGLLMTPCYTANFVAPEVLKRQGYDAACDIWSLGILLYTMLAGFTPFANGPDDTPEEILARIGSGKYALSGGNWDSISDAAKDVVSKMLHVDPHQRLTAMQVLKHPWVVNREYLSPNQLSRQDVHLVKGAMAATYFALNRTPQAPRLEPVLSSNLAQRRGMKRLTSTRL
# Chain of UniProt Q6PHR2 (whole entry, looked up): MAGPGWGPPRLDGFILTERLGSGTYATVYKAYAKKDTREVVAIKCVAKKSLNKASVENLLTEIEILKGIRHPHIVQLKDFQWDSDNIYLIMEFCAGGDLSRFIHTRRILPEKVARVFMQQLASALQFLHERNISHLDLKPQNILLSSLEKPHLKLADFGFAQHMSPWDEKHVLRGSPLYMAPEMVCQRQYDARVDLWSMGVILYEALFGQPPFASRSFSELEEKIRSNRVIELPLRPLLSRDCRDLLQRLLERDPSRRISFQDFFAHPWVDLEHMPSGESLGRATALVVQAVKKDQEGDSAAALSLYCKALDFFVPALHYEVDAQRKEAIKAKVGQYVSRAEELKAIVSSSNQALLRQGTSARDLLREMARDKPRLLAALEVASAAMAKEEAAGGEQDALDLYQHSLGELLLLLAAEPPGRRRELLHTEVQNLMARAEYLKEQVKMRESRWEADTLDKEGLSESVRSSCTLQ
# Chain of UniProt P78368 (whole entry, looked up): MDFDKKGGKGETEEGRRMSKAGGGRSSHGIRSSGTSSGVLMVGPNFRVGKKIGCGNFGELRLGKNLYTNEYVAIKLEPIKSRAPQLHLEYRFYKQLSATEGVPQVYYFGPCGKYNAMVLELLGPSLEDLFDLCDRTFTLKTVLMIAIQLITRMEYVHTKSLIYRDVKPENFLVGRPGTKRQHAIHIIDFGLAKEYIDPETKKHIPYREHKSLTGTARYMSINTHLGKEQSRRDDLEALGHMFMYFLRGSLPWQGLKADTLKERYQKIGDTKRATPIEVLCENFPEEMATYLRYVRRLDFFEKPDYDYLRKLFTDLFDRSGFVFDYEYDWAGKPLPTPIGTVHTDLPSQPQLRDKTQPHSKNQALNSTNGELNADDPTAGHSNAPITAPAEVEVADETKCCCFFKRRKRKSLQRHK
# Chain of UniProt Q8N752 (whole entry, looked up): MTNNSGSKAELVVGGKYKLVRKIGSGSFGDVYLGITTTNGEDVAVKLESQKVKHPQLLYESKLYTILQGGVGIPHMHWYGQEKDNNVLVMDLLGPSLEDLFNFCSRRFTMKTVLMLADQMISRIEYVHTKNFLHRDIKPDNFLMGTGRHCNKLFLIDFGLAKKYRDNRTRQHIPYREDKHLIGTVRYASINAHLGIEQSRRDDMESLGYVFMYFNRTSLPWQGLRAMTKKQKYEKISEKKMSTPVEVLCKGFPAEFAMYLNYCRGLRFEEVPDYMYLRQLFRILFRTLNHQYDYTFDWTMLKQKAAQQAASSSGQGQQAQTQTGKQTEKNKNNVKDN

# Sample 1 — read-out: enzyme activity; mode: inhibitor; concentration: 10 µM
# Target: Calcium/calmodulin-dependent protein kinase type II subunit alpha (CAMK2A, Homo sapiens, UniProt Q9UQM7)
# Chain of UniProt Q9UQM7 (whole entry, looked up): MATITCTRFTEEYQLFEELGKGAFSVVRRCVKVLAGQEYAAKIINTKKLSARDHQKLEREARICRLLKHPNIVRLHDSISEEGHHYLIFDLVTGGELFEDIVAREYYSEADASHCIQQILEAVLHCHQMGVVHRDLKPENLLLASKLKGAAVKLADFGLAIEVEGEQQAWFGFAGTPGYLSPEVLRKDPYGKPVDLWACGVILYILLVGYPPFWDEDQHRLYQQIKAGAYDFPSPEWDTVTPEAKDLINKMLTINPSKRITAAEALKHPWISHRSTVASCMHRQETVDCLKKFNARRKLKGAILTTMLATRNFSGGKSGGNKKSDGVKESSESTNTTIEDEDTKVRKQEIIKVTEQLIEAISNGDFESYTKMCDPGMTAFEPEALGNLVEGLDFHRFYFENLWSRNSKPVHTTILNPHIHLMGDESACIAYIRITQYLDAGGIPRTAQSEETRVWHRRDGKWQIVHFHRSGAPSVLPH
Structure (SMILES),inhibition [%]
OC[C@@H](O)[C@@H](O)[C@H](O)[C@@H](O)CO,-8
C=C(c1ccc(C(=O)O)cc1)c1cc2c(cc1C)C(C)(C)CCC2(C)C,5
COC(=O)[C@@H](N)Cc1ccc(O)cc1,-13
OC[C@H]1O[C@@H](Oc2c(O)cc(O)cc2/C=C/c2ccc(O)cc2)[C@H](O)[C@@H](O)[C@@H]1O,-1
C=C(CCC=C(C)C)[C@H]1CC[C@]2(C)[C@@H]1[C@H](O)C[C@@H]1[C@@]3(C)CC[C@H](O)C(C)(C)[C@@H]3[C@@H](O[C@@H]3O[C@H](CO)[C@@H](O)[C@H](O)[C@H]3O[C@@H]3O[C@@H](C)[C@H](O)[C@@H](O)[C@H]3O)C[C@]12C,-17
CN(C)CCOC(C)(c1ccccc1)c1ccc(Cl)cc1 (stereo not shown),-6
COc1cc(O)c(C(=O)Nc2nc(C(=O)NCCN(C(C)C)C(C)C)cs2)cc1OC,-9
C[C@@H]1CC[C@]2(C(=O)O)CC[C@]3(C)C(=CC[C@@H]4[C@@]5(C)CC[C@H](O[C@@H]6OC[C@H](O)[C@H](O)[C@H]6O)C(C)(C)[C@@H]5CC[C@]43C)[C@@H]2[C@]1(C)O,-5
CC(C)=CCC/C(C)=C/CC/C(C)=C/C=C/C(C)=C/C(=O)O,-13

# Sample 2 — SMILES: Cc1nc(-c2ccccc2)c(-c2ccncc2)o1; read-out: enzyme activity; mode: inhibitor; concentration: 0.5 µM; reference: control
target,remaining activity [%]
"TEK (Homo sapiens, UniProt Q02763)",101
"FRK (Homo sapiens, UniProt P42685)",103
"CSNK1G2 (Homo sapiens, UniProt P78368)",92.2
"WEE1 (Homo sapiens, UniProt P30291)",91.9
"ACVR1B (Homo sapiens, UniProt P36896)",99.3
"MAP2K2 (Homo sapiens, UniProt P36507)",106
"ULK2 (Homo sapiens, UniProt Q8IYT8)",102
"NEK1 (Homo sapiens, UniProt Q96PY6)",103
"ULK3 (Homo sapiens, UniProt Q6PHR2)",94.3
"MAP3K14 (Homo sapiens, UniProt Q99558)",96.2
"RPS6KA2 (Homo sapiens, UniProt Q15349)",93
"GRK7 (Homo sapiens, UniProt Q8WTQ7)",98.3
"TAOK2 (Homo sapiens, UniProt Q9UL54)",101
"MST1R (Homo sapiens, UniProt Q04912)",95.9

# Sample 3 — read-out: cell-free assay; method: competition with immobilised ligand; concentration: 1 µM
# SMILES: CN(C)CC#Cc1ccc(OCCCc2sc(N3CCc4cccc(C(=O)Nc5nc6ccccc6s5)c4C3)nc2C(=O)O)c(F)c1
target,remaining binding [%]
"SRPK1 (Homo sapiens, UniProt Q96SB4)",100
"STK36 (Homo sapiens, UniProt Q9NRP7)",99
"HASPIN (Homo sapiens, UniProt Q8TF76)",100
"MYLK4 (Homo sapiens, UniProt Q86YV6)",99
"DYRK1B (Homo sapiens, UniProt Q9Y463)",87
"NEK5 (Homo sapiens, UniProt Q6P3R8)",87
"CSNK1A1L (Homo sapiens, UniProt Q8N752)",100
"DMPK (Homo sapiens, UniProt Q09013)",100

# Sample 4 — method: phase 2a clinical trial
# SMILES: CC(C)n1cnc(-c2ccc(F)cc2)c1-c1ncc(C(=O)Nc2ccc(N3CCN(C)CC3)cc2)[nH]1
# Host: patients with idiopathic pulmonary fibrosis
dose,notes,added,patients with AST increase [%]
60 mg once daily,without standard of care,,0
30 mg once daily,without standard of care,,0
60 mg once daily,,standard of care,9.1

# Excerpt of the above (sample 3):
target,remaining binding [%]
"STK36 (Homo sapiens, UniProt Q9NRP7)",99
"HASPIN (Homo sapiens, UniProt Q8TF76)",100
"MYLK4 (Homo sapiens, UniProt Q86YV6)",99
